# Results from different studies.
# Lines come from different studies, so protocols differ. Values joined by “and” are separate records of one study, mostly repeats; a detail may differ. Numbers after ± are the reported error.
# Chain of UniProt Q8IU85 (whole entry, looked up): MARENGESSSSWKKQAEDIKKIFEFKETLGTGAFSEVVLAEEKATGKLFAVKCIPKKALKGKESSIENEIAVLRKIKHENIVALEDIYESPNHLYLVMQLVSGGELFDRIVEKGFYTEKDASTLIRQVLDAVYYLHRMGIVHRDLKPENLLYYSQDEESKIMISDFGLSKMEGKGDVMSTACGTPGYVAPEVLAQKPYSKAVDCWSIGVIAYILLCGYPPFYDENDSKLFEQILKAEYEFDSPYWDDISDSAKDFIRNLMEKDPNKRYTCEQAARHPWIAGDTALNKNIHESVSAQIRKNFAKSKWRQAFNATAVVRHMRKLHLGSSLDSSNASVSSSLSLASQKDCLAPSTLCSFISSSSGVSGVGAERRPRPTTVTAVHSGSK
Structure (SMILES),tested on,test,system,conditions,how to read,endpoint,value
CC(C)C[C@H](NC(=O)C[C@H](O)[C@H](CC(C)C)NC(=O)[C@H](Cc1c[nH]cn1)NC(=O)CNC(=O)[C@@H](NC(=O)[C@H](C)NC(=O)[C@H](Cc1c[nH]c2ccccc12)NC(=O)[C@H](CCC(N)=O)NC(=O)[C@@H](Cc1ccccc1)NC(=O)COCCOCCNC(=O)CCC(C(=O)O)N1CCN(CC(=O)O)CCN(CC(=O)O)CCN(CC(=O)O)CC1)C(C)C)C(N)=O (stereo partly drawn) [lutetium-177 labelled],,,"female BALB/c nu/nu mice, kidneys","intravenous, 50 pmol, 1 h",,tissue uptake,3.8 ± 0.8 %ID/g
Cn1cc(Nc2nccc(-c3ccc4c(c3)CN(C3COC3)CC[C@H]4NC(=O)c3cn(C(C)(C)C)nn3)n2)cn1,mouse splenic B cells,measured: JAK/Stat signalling,,"30 mg/kg, IgD-activated in vivo","baseline: vehicle, direction not given",pathway activation z-score,1.94
Cc1cnc(NC2CCOCC2)nc1-n1cnc(C(=O)NC(CN)c2cc(F)cc(Cl)c2)c1 (stereo not drawn),Rec1,flow cytometry,,"1 µM, 48 h",,sub-G0 cells,1.1%
CC(C)NCC(O)c1ccc(O)c(O)c1 (stereo not drawn),mouse ventricular cardiomyocytes,,,"dose not given, 0.051 s",,sarcomere length,1.8 µm
C[C@H](CCC(=O)NCCS(=O)(=O)O)[C@H]1CC[C@H]2[C@@H]3CC[C@@H]4C[C@H](O)CC[C@]4(C)[C@H]3CC[C@]12C,human PKD renal epithelial cells,cell counting,,"20 µM, 48 h",baseline: untreated,proliferation increase,49%
CN[C@H](CC(C)C)C(=O)N[C@H]1C(=O)N[C@@H](CC(N)=O)C(=O)N[C@H]2C(=O)N[C@H]3C(=O)N[C@H](C(=O)N[C@H](C(=O)O)c4cc(O)cc(O)c4-c4cc3ccc4O)[C@H](O)c3ccc(c(Cl)c3)Oc3cc2cc(c3O[C@@H]2O[C@H](CO)[C@@H](O)[C@H](O)[C@H]2O[C@H]2C[C@](C)(N)[C@H](O)[C@H](C)O2)Oc2ccc(cc2Cl)[C@H]1O,Enterococcus faecalis,agar dilution,compound-intermediate,20 isolates,,MIC50,8 µg/mL
COc1nc(NCc2cn(-c3ccc(C(=O)Nc4ccc(C(F)(F)F)cc4)cc3)nn2)nc(OC)n1,HCT-116,flow cytometry,,"IC50, 24 h",,cell cycle phase %G0-G1,53.6%
Cc1cccc(Cn2nc(-c3ccc(CO)o3)c3ccccc32)c1,RBE,"cell viability, CellTiter-Glo",,,,IC50,2510 nM
NC(=O)NOCCCCCCCCCC[P+](c1ccccc1)(c1ccccc1)c1ccccc1.O=C([O-])C(F)(F)F,HCT-116,"cell growth, live-cell imaging",,"12.5 µM, control at 90% confluence",,cell confluence,13.8%
Cn1c(Nc2nc3ccc(C(F)(F)F)cc3s2)nc2cc(C(=O)NCCOCCO)ccc21,SH-SY5Y,"RNA-seq, measured: ITGA6 mRNA",,"5 µM, 5 h",baseline: untreated cells,fold change,2.11
CC(C)(c1ccc(O)cc1)c1ccc(O)cc1,HepG2 spheroids,Hoechst flow cytometry,,"10 µM, 24 h",,S phase cells,7.85 ± 1.58%
CN1CC2(NN=C(c3ccccc3)S2)c2ccccc21 (stereo not drawn),H2373 and H2461 mesothelioma,MTT,,"10 µM, 24 h",,viability loss,60 to 80%
COc1ccc2c(c1)CN(C(=O)CCN1CCC(Cc3ccccc3)CC1)CC[S@@+]2[O-],hiPSC-derived cardiomyocytes,,,10 µM,,APD90,decreased
C=Cc1c2[n-]c(c1C)/C=c1\[n-]/c(c(C)c1C=C)=C\c1[n-]c(c(CCC(=O)O)c1C)/C=c1\[n-]c(c(C)c1CCC(=O)O)=C2.[Sn+4],SH-SY5Y,"RNA-seq, measured: RGS3 mRNA",,"5 µM, 5 h",baseline: untreated cells,fold change,1.81
CC(=O)O[C@H]1C(=O)[C@@]2(C)[C@H]([C@H](OC(=O)c3ccccc3)[C@]3(O)C[C@H](OC(=O)[C@H](O)[C@@H](NC(=O)c4ccccc4)c4ccccc4)C(C)=C1C3(C)C)[C@]1(OC(C)=O)CO[C@@H]1C[C@@H]2O,COS-7 and PC-3,,,,baseline: IC50 COS-7 over PC-3,selectivity index,41.3
Nc1cccc2c1C(=O)N(C1CCC(=O)NC1=O)C2=O (stereo not drawn),bone marrow CD138+ myeloma cells,XTT,,"1.8 µM, mean of three patients",,viability,7%
CC1c2ccccc2CCN1c1ccc(CO)c(Cl)c1 (stereo not drawn),RBE,"cell viability, CellTiter-Glo",,,,IC50,190 nM
C=CC1=C(C)c2cc3[n-]c(cc4nc(cc5[n-]c(cc1n2)c(C)c5C=C)C(C)=C4CCC(=O)O)c(CCC(=O)O)c3C.[Zn+2],SH-SY5Y,"RNA-seq, measured: KLF6 mRNA",,"5 µM, 5 h",baseline: untreated cells,fold change,1.73
CC[C@@H]1[C@H](F)C(=O)N[C@@H]1COc1nccc2cc(C(N)=O)c(OC)cc12,"CAMK1D (Homo sapiens, UniProt Q8IU85)","ATP probe binding, KiNativ profiling, measured: Lys1 probe site",THP-1 cell lysate,,,IC50,> 5000 nM
N#Cc1ccc2c(c1)[C@H]1CCCN(C(=O)c3ccc4[nH]cnc4c3)[C@H]1C2,,,human,"360 mg, day 15",baseline: baseline,ACTH level change,2.4 pmol/L
CSc1cccc(Nc2ncc3cc(-c4c(Cl)cccc4Cl)c(=O)n(C)c3n2)c1,hiPSC-derived cardiomyocytes (iCell),impedance,,"concentration not given, 24 h",baseline: control,cell index,94.6%
CC(C)C[C@H](NC(=O)C[C@H](O)[C@H](CC(C)C)NC(=O)[C@H](Cc1c[nH]cn1)NC(=O)CNC(=O)[C@@H](NC(=O)[C@H](C)NC(=O)[C@H](Cc1c[nH]c2ccccc12)NC(=O)[C@H](CCC(N)=O)NC(=O)[C@@H](Cc1ccccc1)NC(=O)COCCOCCNC(=O)CCC(C(=O)O)N1CCN(CC(=O)O)CCN(CC(=O)O)CC1)C(C)C)C(N)=O (stereo partly drawn) [lutetium-177 labelled],,,"female BALB/c nu/nu mice, blood","intravenous, 50 pmol, 24 h",,tissue uptake,0.0108 ± 0.0004 %ID/g
Cc1cnc2ccc3c(c2n1)N1CCC(O)N=C1N3C (stereo not drawn),BALB/c 3T3,colony formation,,0.1 µM,,plating efficiency,51%
Cl.Cl.NCCNS(=O)(=O)c1ccc(Cl)c2ccncc12,SK-OV-3,ATP,3D gellan gum culture,"0.1 µM, 4 days",baseline: untreated,relative cell number,96%
NC(=O)NOCCCCCCCCCCCC[P+](c1ccccc1)(c1ccccc1)c1ccccc1.O=C([O-])C(F)(F)F,HCT-116,"cell growth, live-cell imaging",,"2 µM, control at 90% confluence",,cell confluence,25.6 ± 3.87%
CCN(CC)CCCC(C)Nc1ccnc2cc(Cl)ccc12 (stereo not drawn),hiPSC-derived cardiomyocytes,"sodium current, perforated patch clamp",,5 µM,baseline: initial current,relative peak current,1.04 and 0.82 and 0.97 and 0.95 and 0.75
COc1cnc2cccc(N3CCc4c(cc(Cn5ccnc5C)cc4-c4cn(C)nc4C(F)(F)F)C3=O)c2c1,TEN,cell growth,,120 h,,EC50,1050 nM
CC(C)C[C@@H]1NC(=O)[C@H](CC(C)C)NC(=O)[C@H](Cc2c[nH]c3ccccc23)NC(=O)[C@H](CO)NC(=O)[C@H](Cc2c[nH]c3ccccc23)NC(=O)[C@@H]2CCCN2C(=O)[C@H](CC(C)C)NC(=O)[C@H](Cc2c[nH]cn2)NC(=O)[C@@H]2CCCN2C(=O)[C@H](CC(N)=O)NC(=O)[C@H](C)NC(=O)[C@H](Cc2ccc(O)cc2)NC(=O)[C@H](CS)NC(=O)[C@H](CCCCNC(=O)CN2CCN(CC(=O)O)CCN(CC(=O)O)CCN(CC(=O)O)CC2)NC1=O [lutetium-177 labelled],4T1,flow cytometry,,"0.4 Bq/cell, 72 h",,dead cells,56.2%
NC(=O)NO,HCT-116,"cell growth, live-cell imaging",,"30 µM, control at 90% confluence",,cell confluence,91.6 ± 5.07%
OC(CCN1CCCCC1)(c1ccccc1)C1CC2C=CC1C2 (stereo not drawn),,resting-state EEG,healthy elderly humans,"oral, 4 mg, eyes open, LS mean",,"EEG gamma power, O2 Pz",0.8 µV²
CCn1cc(-c2cc(Cn3ccoc3=N)cc3c2CCN([C@@H](C)c2cc(OC)ccn2)C3=O)c(C(F)(F)F)n1,IM95,"cell growth, inhibitor",,120 h,,EC50,721 nM
CCCCc1nc(Cl)c(CO)n1Cc1ccc(-c2ccccc2-c2nn[nH]n2)cc1,human PBMC,"RNA-seq, measured: OPRD1 mRNA",,"10 µg/mL, 24 h",baseline: untreated control,log2 fold change,2.01
COc1ccc(-n2nc(C(C)=O)s/c2=N\N=C(/C)c2ccc(NC(=O)c3ccc(Cl)cc3)cc2)cc1,HepG2,,,0.156 µM,,viability,24.9%
NC(=O)NOCCCCCCCCCCCCCCCC[P+](c1ccccc1)(c1ccccc1)c1ccccc1.O=C([O-])C(F)(F)F,HCT-116,"cell growth, live-cell imaging",,"3 µM, control at 90% confluence",,cell confluence,5.35%
OCc1ccc(-c2nn(-c3ccccc3)c3ccccc23)o1,RBE,"cell viability, CellTiter-Glo",,,,IC50,4250 nM
Cn1cc(-c2ccc(-c3cncc(Cl)c3N3CCC4(CCNC4=O)CC3)cc2)cn1,COLO 205,"gene expression, microarray, measured: PLK4 (STK18) mRNA",,"concentration not given, 6 h",baseline: untreated cells,log2 fold change,-2.63
[Cl-].c1csc([I+]c2cccs2)c1,LS174T,"RT-PCR, measured: Nox1, p22phox, NoxA1, NoxO1",,"10 µM, 24 h, together with: DPI 250 nM",,mRNA level,decreased
COc1cc(Cn2nc(-c3ccc(CO)o3)c3ccccc32)ccn1,RBE,"cell viability, CellTiter-Glo",,,,IC50,380 nM
Cc1cccc(-c2[nH]c(CNc3ccccc3F)nc2-c2ccc3ncnn3c2)n1,MM1.S pomalidomide-resistant,XTT,,2 µM,,viability,50% and 41% and 30%
CNC(=O)c1c(F)cccc1Nc1nc(Nc2cc3c(cc2OC)CCN3C(=O)CN(C)C)nc2[nH]ccc12,hiPSC-derived cardiomyocytes (iCell),impedance (xCELLigence Cardio),,"concentration not given, 2 h",baseline: control,beat amplitude,104%
CC(C)N=C(N)c1ccc2nc(-c3ccc(OCc4cccc(COc5ccc(-c6nc7ccc(C(N)=NC(C)C)cc7[nH]6)cc5)c4F)cc3)[nH]c2c1,HEK293 cells CMV-luciferase,"reporter gene, CMV-luciferase counter-screen",,concentration not given,baseline: DMSO,remaining activity,99 ± 27%
CC/C(=N\NC(=O)NCc1cccc(O)c1)c1ccc(O)c(C)c1O,SK-OV-3,"Western blot, measured: LATS",,"10 µM, 3 h, 3D gellan gum culture, unit not given",baseline: β-actin,protein level,0.77 ± 0.55
O=C(Nc1nnc2n3c(=S)[nH][nH]c3nc(-c3ccc(Cl)cc3)c1-2)c1ccccc1,SF-295,SRB,,"10 µM, NCI60 single-dose screen",baseline: untreated,cell growth,79.2%
CN(C)CC(=O)N1CCC(c2ccc(NC(=O)c3nc(C#N)c[nH]3)c(C3=CCCCC3)c2)CC1,hiPSC-derived cardiomyocytes (iCell),impedance,,"concentration not given, 24 h",baseline: control,cell index,102%
NC(=O)NOCCCCCCCCCCCCCCCCCCCC[P+](c1ccccc1)(c1ccccc1)c1ccccc1.O=C([O-])C(F)(F)F,HCT-116,"cell growth, live-cell imaging",,"0.05 µM, control at 90% confluence",,cell confluence,91 ± 3.05%
COc1ccc(NC(=S)N/N=C/c2cccc3cc4ccccc4nc23)cc1,HeLa,PI flow cytometry,,"IC25, 48 h",,G1 phase cells,57.4 ± 0.7%
CCN(Cc1cccc(OC)c1)c1ccc(CO)c(Cl)c1,RBE,"cell viability, CellTiter-Glo",,,,IC50,120 nM
CCn1cc(-c2cc(Cn3ccnc3)cc3c2CCN([C@H](c2cc(OC)ccn2)C2CC2)C3=O)c(C(F)(F)F)n1,SU-DHL10,"cell growth, inhibitor",,120 h,,EC50,4500 nM

# Excerpt of the above:
Structure (SMILES),tested on,test,system,conditions,how to read,endpoint,value
CC(C)C[C@H](NC(=O)C[C@H](O)[C@H](CC(C)C)NC(=O)[C@H](Cc1c[nH]cn1)NC(=O)CNC(=O)[C@@H](NC(=O)[C@H](C)NC(=O)[C@H](Cc1c[nH]c2ccccc12)NC(=O)[C@H](CCC(N)=O)NC(=O)[C@@H](Cc1ccccc1)NC(=O)COCCOCCNC(=O)CCC(C(=O)O)N1CCN(CC(=O)O)CCN(CC(=O)O)CC1)C(C)C)C(N)=O (stereo partly drawn) [lutetium-177 labelled],,,"female BALB/c nu/nu mice, blood","intravenous, 50 pmol, 24 h",,tissue uptake,0.0108 ± 0.0004 %ID/g
Cc1cnc2ccc3c(c2n1)N1CCC(O)N=C1N3C (stereo not drawn),BALB/c 3T3,colony formation,,0.1 µM,,plating efficiency,51%
Cl.Cl.NCCNS(=O)(=O)c1ccc(Cl)c2ccncc12,SK-OV-3,ATP,3D gellan gum culture,"0.1 µM, 4 days",baseline: untreated,relative cell number,96%
NC(=O)NOCCCCCCCCCCCC[P+](c1ccccc1)(c1ccccc1)c1ccccc1.O=C([O-])C(F)(F)F,HCT-116,"cell growth, live-cell imaging",,"2 µM, control at 90% confluence",,cell confluence,25.6 ± 3.87%
CCN(CC)CCCC(C)Nc1ccnc2cc(Cl)ccc12 (stereo not drawn),hiPSC-derived cardiomyocytes,"sodium current, perforated patch clamp",,5 µM,baseline: initial current,relative peak current,1.04 and 0.82 and 0.97 and 0.95 and 0.75
COc1cnc2cccc(N3CCc4c(cc(Cn5ccnc5C)cc4-c4cn(C)nc4C(F)(F)F)C3=O)c2c1,TEN,cell growth,,120 h,,EC50,1050 nM
